Measurements pooled from the literature.
Protocols differ between the studies behind these lines. ± marks the error that the study gave.

With `COc1ccccc1-c1n[nH]c2nc(N[C@H]3CC[C@H](NS(=O)(=O)CC(C)C)CC3)ncc12` the EC50 was 0.24 ± 0.002 nM (Leishmania donovani; LdBOB CRK12 overexpressing, promastigotes).
`CC[C@@H]1NC(=O)[C@H]([C@H](O)[C@H](C)Cc2nc3ccc(C(=O)OC)cc3[nH]2)N(C)C(=O)[C@H](C(C)C)N(C)C(=O)[C@H](CC(C)C)N(C)C(=O)[C@H](CC(C)C)N(C)C(=O)[C@@H](C)NC(=O)[C@H](C)NC(=O)[C@H](CC(C)C)N(C)C(=O)[C@H](C(C)C)NC(=O)[C@H](CC(C)C)N(C)C(=O)CN(C)C1=O` has an EC50 of 1100 nM (Human coronavirus NL63; viral replication, inhibitor, qPCR; Caco-2; 48 h).
With `COc1ccc(S(=O)(=O)NCc2c[nH]nc2-c2cccs2)cc1` the EC50 was 15600 nM (Plasmodium falciparum).
`Nc1ncnc2c1c(F)cn2[C@@H]1O[C@H](CO)C[C@H]1O` gave an EC50 of 3.1 ± 0.3 nM (Trypanosoma congolense; parasite growth, resazurin; 6C3 diminazene-resistant; 48 h plus 24 h resazurin).
`O=C1/C(=N\NC(=S)NN=Cc2cccs2)c2ccccc2N1Cc1ccccc1` gave an EC50 of greater than 20000 nM (herpes simplex virus 2; viral cytopathogenicity; HEL, G).
The EC50 of `Nc1ncnc2c1c(Cl)cn2[C@@H]1O[C@H](CO)C[C@H]1O` is reported as 0.66 ± 0.03 nM (Trypanosoma congolense; parasite growth, resazurin; 6C3 diminazene-resistant; 48 h plus 24 h resazurin).
`COc1cccc(CNC(=O)c2cc(C(C)(C)C)nn2C)c1OC` has an EC50 of less than 1000 nM (human rhinovirus; viral replication; H1-HeLa, HRV-16).
The EC50 of `Cc1cn(C2CC(N(C)C)C(CO)O2)c(=O)[nH]c1=O` (stereo not drawn) is reported as greater than 370 nM (Sindbis virus; viral replication; Vero).
With `Nc1ncnc2c1c(Br)cn2[C@@H]1O[C@H](CO)[C@@H](O)[C@H]1O` the EC50 was 520 ± 30 nM (Trypanosoma congolense; parasite growth, resazurin; 6C3 diminazene-resistant; 48 h plus 24 h resazurin).
With `CCCCCCCCCC(=O)OCC1OC(n2cc(C)c(=O)[nH]c2=O)CC1N(C)C` (stereo not drawn) the EC50 was greater than 150 nM (HIV-2; viral cytopathic effect, MTT; MT-4, ROD).
`Nc1ncnc2c1c(C(F)(F)F)cn2[C@@H]1O[C@H](CO)[C@@H](O)[C@H]1O` has an EC50 of 890 ± 170 nM (Trypanosoma congolense; parasite growth, resazurin; 6C3 diminazene-resistant; 48 h plus 24 h resazurin).
The EC50 of `O=C(Cc1csc2nc(-c3ccc(Br)cc3)cn12)NN=C1CCCC1` is reported as greater than 100 µg/mL (Feline coronavirus; virus-induced cytopathicity, microscopy; CRFK).
For `CC[C@@H]1NC(=O)[C@H]([C@H](O)[C@H](C)Cc2nc3ccc(C(=O)c4ccccc4)cc3[nH]2)N(C)C(=O)[C@H](C(C)C)N(C)C(=O)[C@H](CC(C)C)N(C)C(=O)[C@H](CC(C)C)N(C)C(=O)[C@@H](C)NC(=O)[C@H](C)NC(=O)[C@H](CC(C)C)N(C)C(=O)[C@H](C(C)C)NC(=O)[C@H](CC(C)C)N(C)C(=O)CN(C)C1=O`, the EC50 was 8100 nM (Human coronavirus NL63; viral replication, inhibitor, qPCR; Caco-2; 48 h).
With `Nc1ncnc2c1c(F)cn2[C@@H]1O[C@H](CO)[C@@H](O)[C@H]1O` the EC50 was 780 ± 100 nM (Trypanosoma congolense; parasite growth, resazurin; 6C3 diminazene-resistant; 48 h plus 24 h resazurin).
The EC50 of `Cc1cc(O)c(=O)c(O)c(O)c1C(=O)c1ccc(-c2ccccc2)cc1` is reported as roughly 50 nM (herpes simplex virus 2; viral replication).
`OC[C@H]1O[C@@H]([Se][Se][C@@H]2O[C@H](CO)[C@@H](O)[C@H](O)[C@H]2O)[C@H](O)[C@@H](O)[C@@H]1O` gave an EC50 of roughly 5000 nM (Trypanosoma brucei; parasite growth, flow cytometry; 24 h, blood stage).
For `[N-]=[N+]=N[C@]1(CO)O[C@@H](n2ccc(N)nc2=O)C(F)(F)[C@@H]1O`, the EC50 was 210 ± 40 nM (human respiratory syncytial virus; viral replication; NCI-H358).
For `Nc1ncnc2c1ccn2[C@@H]1O[C@H](CO)C[C@H]1O`, the EC50 was 19 ± 2 nM (Trypanosoma congolense; parasite growth, resazurin; 6C3 diminazene-resistant; 48 h plus 24 h resazurin).

Excerpt of the above:
`Nc1ncnc2c1c(C(F)(F)F)cn2[C@@H]1O[C@H](CO)[C@@H](O)[C@H]1O` has an EC50 of 890 ± 170 nM (Trypanosoma congolense; parasite growth, resazurin; 6C3 diminazene-resistant; 48 h plus 24 h resazurin).
The EC50 of `Cc1cc(O)c(=O)c(O)c(O)c1C(=O)c1ccc(-c2ccccc2)cc1` is reported as roughly 50 nM (herpes simplex virus 2; viral replication).
